Values quoted from earlier work as cited in several papers.
Compare with care: the assays were run in different laboratories. Several values in a cell are separate wells, animals, samples, runs or records. ± marks the error that the study gave. Converted amounts (≈) assume the structure as drawn.

| SMILES | test | system | conditions | endpoint | result |
| --- | --- | --- | --- | --- | --- |
| Cc1c(C(=O)NN2CCCCC2)nn(-c2ccc(Cl)cc2Cl)c1-c1ccc(Cl)cc1 | – | human | – | fraction unbound | 0.0005 |
| O=S(=O)(O)C(F)(F)F | – | – | – | pKa | ~-6 |
| c1cc2ccc3cccc4ccc(c1)c2c34 | – | zebrafish embryos, whole embryo | 109 ng/well, 48 hpf, single exposure | amount in tissue | 24.6 ng/well and 23.2 ng/well and 25.9 ng/well |
| NC1CCN(c2c(F)cc3c(=O)c(C(=O)O)cn(C4CC4)c3c2Cl)C1 (stereo not shown) | – | mouse | – | fraction unbound | 0.377 |
| Cc1cccc(C)c1OCC(=O)N[C@@H](Cc1ccccc1)[C@@H](O)C[C@H](Cc1ccccc1)NC(=O)[C@H](C(C)C)N1CCCNC1=O | – | human | – | blood-to-plasma ratio | 0.44 |
| Cc1ccc2cc(C)ccc2c1 | – | zebrafish embryos, whole embryo | 181.2 ng/well, 48 hpf, single exposure | amount in tissue | 0.935 ng/well and 0.963 ng/well and 1.05 ng/well |
| N.N.O=C([O-])C1(C(=O)[O-])CCC1.[Pt+2] | – | plasma | literature data | free Cmax | 9.78 µM |
| CCCCCOc1ccc(-c2ccc(-c3ccc(C(=O)N[C@H]4C[C@@H](O)[C@@H](O)NC(=O)[C@@H]5[C@@H](O)[C@@H](C)CN5C(=O)[C@H]([C@@H](C)O)NC(=O)[C@H]([C@H](O)[C@@H](O)c5ccc(O)cc5)NC(=O)[C@@H]5C[C@@H](O)CN5C(=O)[C@H]([C@@H](C)O)NC4=O)cc3)cc2)cc1 | – | human, general patient population | dose not given, sample A kg patient, typical value | central volume of distribution | 11.9 L |
| N#CCNC(=O)c1ccc(-c2ccnc(Nc3ccc(N4CCOCC4=O)cc3)n2)cc1 | – | severe renal impairment | dose not given | AUC(0-inf) increase | 41% |
| Nc1ncnc2c1ncn2C[C@@H](CO)OCP(=O)(O)O | – | mouse | oral | oral bioavailability | < 5% |
| O=C(O)c1cc(-c2ccc(C3CCNCC3)cc2)c2ccc(-c3ccc(C(F)(F)F)cc3)cc2c1 | – | – | pH 7.4 | solubility | 0.36 ± 0.03 µg/mL |
| O=C(O)C(F)(F)C(F)(F)C(F)(F)C(F)(F)C(F)(F)C(F)(F)C(F)(F)F | phase separation | – | literature value | pKa | 1.01 |
| Cc1ccc2ccccc2c1 | – | zebrafish embryos, whole embryo | 76.65 ng/well, 48 hpf, single exposure | amount in tissue | 0.161 ng/well and 0.116 ng/well and 0.154 ng/well |
| CC(C)(c1ccc(O)cc1)c1ccc(O)cc1 | – | CD-1 mouse, female | 100 mg/kg | dose-normalized AUC | 29.8 (nmol·h/mL)/(mmol/kg) |
| O=S(=O)(O)C(F)(F)C(F)(F)C(F)(F)C(F)(F)F | – | plasma | – | plasma fraction unbound | 0.0128 |
| Fc1ccc([C@@H]2CCNC[C@H]2COc2ccc3c(c2)OCO3)cc1 | – | human | – | fraction unbound | 0.005 |
| COC(=O)[C@@H](N)Cc1ccc(OP2(=O)CO[C@@H](Cn3ccc(N)nc3=O)CO2)cc1 (stereo partly shown) | – | PBS | pH 6.5, Sp isomer | half-life | 0.0389 days |
| CC(CC(c1ccccc1)c1ccccc1)NC(C)(C)C (stereo not shown) | – | mouse | – | fraction unbound | 0.049 |
| Cc1cccc2c1ccc1cc(C(C)C)ccc12 | substrate | human liver microsomes | – | Km | 0.002 µM |
| C[C@H]1C[C@@H]2[C@H]([C@@H](O)C[C@@]3(C)[C@H]2CC[C@]3(O)C(=O)CO)[C@@]2(C)C=CC(=O)C=C12 | – | human, plasma | concentration not given, median of reported values | Cmax | 0.313 µM |

| SMILES | test | system | conditions | endpoint | result |
| --- | --- | --- | --- | --- | --- |
| CC(=O)CC(c1ccccc1)c1c(O)c2ccccc2oc1=O (stereo not shown) | – | mouse | – | fraction unbound | 0.094 |
| CCc1cccc(C)c1N(C(=O)CCl)C(C)COC (stereo not shown) | – | – | – | log Kow | 3.13 |
| Clc1cc2c(cc1Cl)Oc1cc(Cl)c(Cl)cc1O2 | – | female C57BL/6 mouse | every 28 days for 4 days | lowest dose with hepatic inflammation | 10 µg/kg |
| C=CC(=O)N[C@H]1C=C(C)c2c(-c3cnc4ccccc4c3)c3c(N)ncnc3n2C1 | phase 1/2 trial | human, NSCLC patients | dose not given | patients with adverse events | 23% |
| FC(F)(F)c1ccc2c(c1)[C@@H]1CNC[C@H]2C1 | – | rat | AUC(0-24) based | unbound brain-to-plasma ratio | 0.41 |
| CCOC(=O)C1=C(CN2CCOCC2)NC(c2nccs2)=NC1c1ccc(F)cc1Br (stereo not shown) | – | – | pH 7 | aqueous solubility | < 1.19 µg/mL |
| CNCCCN1c2ccccc2CCc2ccccc21 | – | mouse | – | fraction unbound | 0.011 |
| N.N.[Cl][Pt][Cl] | item: total platinum | mouse, plasma | intravenous, 2.6 mg Pt/kg | C0 | 6.53 µg Pt/mL |
| CC(=O)C[C@@H](c1ccccc1)c1c(O)c2ccccc2oc1=O | – | human, fasted | oral, 15 mg, single dose, together with: racemic warfarin 30 mg | Cmax, mean | 1700 ng/mL |
| Cc1nc2n(c(=O)c1CCN1CCC(c3noc4cc(F)ccc34)CC1)CCCC2O (stereo not shown) | – | mouse | – | fraction unbound | 0.129 |
| O=S(=O)(O)C(F)(F)C(F)(F)C(F)(F)C(F)(F)C(F)(F)C(F)(F)F | – | human | – | half-life | 3600 days |
| CS(=O)(=O)NCC1CCOC2(CCN(C(=O)C3(c4ccccc4)CCCC3)CC2)C1 (stereo not shown) | – | – | concentration not given | solubility | 240 µM |
| CC(C)C[C@H](NC(=O)CNC(=O)[C@H](C)NC(=O)[C@H](CC(=O)O)NC(=O)[C@H](CC(=O)O)NC(=O)[C@H](C)NC(=O)[C@@H]1CCCN1C(=O)[C@H](CCCCN)NC(=O)CNC(=O)[C@@H]1CCCN1C(=O)[C@@H]1CCCN1C(=O)[C@@H]1CCCN1C(=O)[C@H](CCC(=O)O)NC(=O)CN)C(=O)N[C@H](C(=O)O)C(C)C | – | beagle dog | intravenous or intramuscular, dose not given | acute toxicity | not toxic |
| ClC1=C(Cl)C2(Cl)C3C4CC(C5OC45)C3C1(Cl)C2(Cl)Cl (stereo not shown) | – | – | 25 °C | water solubility | 0.2 µg/mL (≈ 0.525 µM) |
| NC1CCCCC1N.O=C([O-])C(=O)[O-].[Pt+2] (stereo not shown) | item: total platinum | mouse, plasma | intraperitoneal, 5 mg Pt/kg | AUC | 23200 ng·h/mL |
| c1ccc2c(c1)ccc1c3ccccc3ccc21 | – | fish | dose not given, experimental mean | bioconcentration factor | 2080 L/kg |
| C#CCOc1ccc(-c2nc3cc(NC(=O)[C@H](N)Cc4ccccc4)ccc3o2)cc1 | – | mouse, plasma | – | unbound fraction | < 0.4% |
| CCCCCOc1ccc(-c2cc(-c3ccc(C(=O)N[C@H]4C[C@@H](O)[C@@H](O)NC(=O)[C@@H]5[C@@H](O)[C@@H](C)CN5C(=O)[C@H]([C@H](O)CC(N)=O)NC(=O)[C@H]([C@H](O)[C@@H](O)c5ccc(O)c(OS(=O)(=O)O)c5)NC(=O)[C@@H]5C[C@@H](O)CN5C(=O)[C@H]([C@@H](C)O)NC4=O)cc3)no2)cc1 | – | human | together with: radiolabelled compound | fraction excreted in urine | 12% |
| NC(=O)c1nc(F)c[nH]c1=O | – | hamster | intraperitoneal, 12.5 mg | lung concentration | 90.7 µg/g |
| CN(C)CCCN1c2ccccc2CCc2ccc(Cl)cc21 | – | dog | – | fraction unbound | 0.004 |

A few entries again:
| SMILES | test | system | conditions | endpoint | result |
| --- | --- | --- | --- | --- | --- |
| CC(=O)CC(c1ccccc1)c1c(O)c2ccccc2oc1=O (stereo not shown) | – | mouse | – | fraction unbound | 0.094 |
| ClC1=C(Cl)C2(Cl)C3C4CC(C5OC45)C3C1(Cl)C2(Cl)Cl (stereo not shown) | – | – | 25 °C | water solubility | 0.2 µg/mL (≈ 0.525 µM) |
| CS(=O)(=O)NCC1CCOC2(CCN(C(=O)C3(c4ccccc4)CCCC3)CC2)C1 (stereo not shown) | – | – | concentration not given | solubility | 240 µM |
| Cc1c(C(=O)NN2CCCCC2)nn(-c2ccc(Cl)cc2Cl)c1-c1ccc(Cl)cc1 | – | human | – | fraction unbound | 0.0005 |
| Cc1nc2n(c(=O)c1CCN1CCC(c3noc4cc(F)ccc34)CC1)CCCC2O (stereo not shown) | – | mouse | – | fraction unbound | 0.129 |
